# Assay results gathered from unrelated publications.
# Every numbered part comes from another study and shows a few of its results, in no order. “And” joins repeats or separate records; there may be more than shown.
# Sequence of UniProt P49674 (whole entry, looked up): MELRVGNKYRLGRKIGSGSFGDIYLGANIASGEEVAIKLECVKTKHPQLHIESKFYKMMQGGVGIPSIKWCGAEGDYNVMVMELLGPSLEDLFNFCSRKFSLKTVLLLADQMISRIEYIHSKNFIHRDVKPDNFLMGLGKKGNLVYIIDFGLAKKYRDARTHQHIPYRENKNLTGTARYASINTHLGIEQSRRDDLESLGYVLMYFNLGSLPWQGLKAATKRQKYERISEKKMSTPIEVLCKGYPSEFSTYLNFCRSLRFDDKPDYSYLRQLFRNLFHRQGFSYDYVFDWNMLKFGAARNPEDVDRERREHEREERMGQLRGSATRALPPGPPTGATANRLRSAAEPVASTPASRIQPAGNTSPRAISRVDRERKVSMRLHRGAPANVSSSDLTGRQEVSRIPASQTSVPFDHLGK
# Sequence of UniProt Q9H0K1 (whole entry, looked up): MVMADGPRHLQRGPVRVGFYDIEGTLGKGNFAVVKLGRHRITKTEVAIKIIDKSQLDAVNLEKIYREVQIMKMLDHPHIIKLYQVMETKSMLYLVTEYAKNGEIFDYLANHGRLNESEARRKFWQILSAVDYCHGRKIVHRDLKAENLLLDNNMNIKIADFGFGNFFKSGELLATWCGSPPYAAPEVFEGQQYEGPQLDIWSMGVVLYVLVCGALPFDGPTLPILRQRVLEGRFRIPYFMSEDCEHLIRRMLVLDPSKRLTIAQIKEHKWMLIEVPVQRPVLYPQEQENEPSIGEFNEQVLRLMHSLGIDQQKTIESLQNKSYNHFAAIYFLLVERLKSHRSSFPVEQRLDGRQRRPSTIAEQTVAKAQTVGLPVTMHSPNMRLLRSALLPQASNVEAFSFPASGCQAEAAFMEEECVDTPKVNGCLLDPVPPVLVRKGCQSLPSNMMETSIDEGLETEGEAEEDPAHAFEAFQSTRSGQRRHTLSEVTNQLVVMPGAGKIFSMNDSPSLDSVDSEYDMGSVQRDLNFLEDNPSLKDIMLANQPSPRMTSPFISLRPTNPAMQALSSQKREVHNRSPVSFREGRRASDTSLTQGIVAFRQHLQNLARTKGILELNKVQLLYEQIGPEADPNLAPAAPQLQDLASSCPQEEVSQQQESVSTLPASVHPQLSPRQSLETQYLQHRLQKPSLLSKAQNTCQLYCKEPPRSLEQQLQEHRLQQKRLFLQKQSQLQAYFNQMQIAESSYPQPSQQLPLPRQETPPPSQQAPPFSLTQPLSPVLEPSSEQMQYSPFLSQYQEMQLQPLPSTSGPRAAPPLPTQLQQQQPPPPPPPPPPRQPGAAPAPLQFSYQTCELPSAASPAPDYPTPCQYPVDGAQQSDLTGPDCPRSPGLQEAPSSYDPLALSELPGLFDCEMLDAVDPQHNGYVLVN
# Sequence of UniProt Q9HBY8 (whole entry, looked up): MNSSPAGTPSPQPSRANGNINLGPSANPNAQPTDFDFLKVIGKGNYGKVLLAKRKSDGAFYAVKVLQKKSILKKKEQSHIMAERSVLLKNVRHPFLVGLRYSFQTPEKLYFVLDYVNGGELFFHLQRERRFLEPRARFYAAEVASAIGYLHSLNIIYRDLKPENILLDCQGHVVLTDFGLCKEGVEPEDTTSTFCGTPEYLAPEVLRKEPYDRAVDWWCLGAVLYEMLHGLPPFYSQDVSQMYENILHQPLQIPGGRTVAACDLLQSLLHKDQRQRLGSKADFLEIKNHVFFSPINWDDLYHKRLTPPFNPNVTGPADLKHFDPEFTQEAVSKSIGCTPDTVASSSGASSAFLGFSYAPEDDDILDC
# Sequence of UniProt P29317 (whole entry, looked up): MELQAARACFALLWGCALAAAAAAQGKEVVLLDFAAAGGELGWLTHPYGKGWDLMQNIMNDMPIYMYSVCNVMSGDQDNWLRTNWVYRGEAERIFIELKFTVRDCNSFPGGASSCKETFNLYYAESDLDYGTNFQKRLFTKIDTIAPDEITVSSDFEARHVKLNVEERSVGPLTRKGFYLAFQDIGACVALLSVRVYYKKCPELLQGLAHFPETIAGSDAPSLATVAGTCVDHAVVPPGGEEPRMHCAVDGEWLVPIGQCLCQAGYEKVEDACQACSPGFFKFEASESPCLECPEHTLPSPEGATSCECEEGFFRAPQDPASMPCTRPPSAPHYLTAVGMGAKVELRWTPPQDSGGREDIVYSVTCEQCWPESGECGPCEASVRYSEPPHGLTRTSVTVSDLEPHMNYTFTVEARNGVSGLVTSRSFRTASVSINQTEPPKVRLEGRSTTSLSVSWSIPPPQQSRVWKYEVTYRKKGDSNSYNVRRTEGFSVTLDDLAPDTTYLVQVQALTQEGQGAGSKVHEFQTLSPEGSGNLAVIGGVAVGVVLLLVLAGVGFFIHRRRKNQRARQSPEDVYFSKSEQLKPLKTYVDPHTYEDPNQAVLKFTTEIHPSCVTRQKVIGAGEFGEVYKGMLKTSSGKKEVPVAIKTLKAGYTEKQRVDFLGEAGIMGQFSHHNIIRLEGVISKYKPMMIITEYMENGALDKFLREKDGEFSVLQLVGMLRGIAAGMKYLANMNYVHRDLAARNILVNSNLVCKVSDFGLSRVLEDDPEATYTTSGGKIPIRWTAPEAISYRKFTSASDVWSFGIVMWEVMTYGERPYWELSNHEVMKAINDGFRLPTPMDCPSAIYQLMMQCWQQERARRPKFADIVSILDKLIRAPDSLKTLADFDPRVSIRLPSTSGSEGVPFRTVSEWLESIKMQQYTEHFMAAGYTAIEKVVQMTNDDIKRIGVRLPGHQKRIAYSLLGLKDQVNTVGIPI
# Sequence of UniProt Q96SB4 (whole entry, looked up): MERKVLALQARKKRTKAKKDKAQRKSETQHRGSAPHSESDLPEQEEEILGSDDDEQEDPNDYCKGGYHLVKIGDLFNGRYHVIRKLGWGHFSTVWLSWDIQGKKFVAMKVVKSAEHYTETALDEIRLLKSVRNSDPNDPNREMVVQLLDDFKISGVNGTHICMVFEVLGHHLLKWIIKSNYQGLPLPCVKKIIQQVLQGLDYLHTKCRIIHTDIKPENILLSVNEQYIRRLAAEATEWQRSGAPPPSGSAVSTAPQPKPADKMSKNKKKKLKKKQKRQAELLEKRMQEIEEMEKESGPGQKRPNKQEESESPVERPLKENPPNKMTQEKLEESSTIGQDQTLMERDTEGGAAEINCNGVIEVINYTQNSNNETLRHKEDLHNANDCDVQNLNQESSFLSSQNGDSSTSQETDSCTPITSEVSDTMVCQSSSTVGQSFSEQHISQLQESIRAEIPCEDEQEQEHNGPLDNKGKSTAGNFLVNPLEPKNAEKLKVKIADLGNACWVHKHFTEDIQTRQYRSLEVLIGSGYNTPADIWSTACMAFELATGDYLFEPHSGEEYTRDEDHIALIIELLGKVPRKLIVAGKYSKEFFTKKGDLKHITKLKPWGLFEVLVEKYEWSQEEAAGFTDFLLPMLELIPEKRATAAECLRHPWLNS
# Sequence of UniProt P23975 (whole entry, looked up): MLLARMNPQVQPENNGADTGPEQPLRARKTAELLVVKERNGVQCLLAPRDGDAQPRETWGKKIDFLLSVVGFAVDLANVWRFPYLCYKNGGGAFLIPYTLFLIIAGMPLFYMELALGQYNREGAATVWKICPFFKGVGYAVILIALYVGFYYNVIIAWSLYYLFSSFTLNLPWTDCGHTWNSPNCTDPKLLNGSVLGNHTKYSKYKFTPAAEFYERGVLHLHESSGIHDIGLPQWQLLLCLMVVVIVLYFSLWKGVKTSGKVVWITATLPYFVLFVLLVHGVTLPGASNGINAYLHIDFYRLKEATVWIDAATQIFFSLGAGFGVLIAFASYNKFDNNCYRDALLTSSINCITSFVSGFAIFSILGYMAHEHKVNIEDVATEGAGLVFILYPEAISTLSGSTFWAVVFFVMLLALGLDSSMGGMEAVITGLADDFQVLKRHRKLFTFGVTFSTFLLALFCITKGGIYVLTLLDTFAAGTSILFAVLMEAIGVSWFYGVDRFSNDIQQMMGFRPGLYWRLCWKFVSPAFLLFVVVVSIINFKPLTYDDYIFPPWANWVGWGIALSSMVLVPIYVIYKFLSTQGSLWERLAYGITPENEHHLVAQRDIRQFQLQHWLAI
# Sequence of UniProt O15146 (whole entry, looked up): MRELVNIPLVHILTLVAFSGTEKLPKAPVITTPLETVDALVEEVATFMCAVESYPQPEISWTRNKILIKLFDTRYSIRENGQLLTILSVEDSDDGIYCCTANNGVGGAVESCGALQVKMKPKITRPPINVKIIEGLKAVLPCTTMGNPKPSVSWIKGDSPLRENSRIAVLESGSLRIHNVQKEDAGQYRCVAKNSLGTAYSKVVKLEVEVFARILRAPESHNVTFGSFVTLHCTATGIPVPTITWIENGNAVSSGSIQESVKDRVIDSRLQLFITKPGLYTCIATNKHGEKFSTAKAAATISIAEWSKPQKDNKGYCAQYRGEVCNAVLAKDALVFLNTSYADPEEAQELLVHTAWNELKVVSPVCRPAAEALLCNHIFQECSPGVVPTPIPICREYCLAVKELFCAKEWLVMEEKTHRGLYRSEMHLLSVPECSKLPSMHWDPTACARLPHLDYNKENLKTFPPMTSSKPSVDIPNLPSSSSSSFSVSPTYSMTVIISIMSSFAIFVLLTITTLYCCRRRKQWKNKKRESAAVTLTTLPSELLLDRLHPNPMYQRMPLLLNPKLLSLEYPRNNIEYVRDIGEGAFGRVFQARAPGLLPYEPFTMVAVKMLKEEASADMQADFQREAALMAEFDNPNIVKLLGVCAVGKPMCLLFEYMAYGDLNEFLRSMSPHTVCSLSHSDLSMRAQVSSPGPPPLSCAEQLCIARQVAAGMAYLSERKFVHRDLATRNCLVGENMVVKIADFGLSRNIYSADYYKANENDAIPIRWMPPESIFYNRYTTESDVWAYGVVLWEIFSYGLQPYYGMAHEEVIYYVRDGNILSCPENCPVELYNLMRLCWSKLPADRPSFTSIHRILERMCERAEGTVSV

# Set 1 — technique: CCK-8
# Compound: CC(C)S(=O)(=O)c1ccc2nccc(Nc3ccc4sc(C5CCCC5)nc4c3)c2c1.Cl
cell line,tested at,with,survival
L929 RIPK3-/- reexpressing RIPK3 K51A,1.563 µM,,99% and 94.2% and 97.9% and 98.6% and 96.8%
L929 RIPK3-/- reexpressing RIPK3 K51A,12.5 µM,zVAD,105% and 101% and 95.9% and 110% and 94%
L929 RIPK3-/- reexpressing RIPK3 K51A/R69H,1.563 µM,,97.7% and 95.2% and 81.4% and 99% and 94.9%
L929 RIPK3-/- reexpressing RIPK3 K51A,3.125 µM,zVAD,97.3% and 97.9% and 96.3% and 100% and 96.8%
L929 RIPK3-/- reexpressing RIPK3 K51A,1.563 µM,zVAD,97.6% and 98.7% and 96.5% and 98.3%

# Set 2 — medium: plasma
# Structure (SMILES): O=C1CCC(N2Cc3c(ccc4c3OCC43CCN(Cc4ccccc4)CC3)C2=O)C(=O)N1 (stereo not shown)
species,route,dose,Tmax [min]
male Sprague-Dawley rat,intravenous,1 mg/kg,8.4
male Sprague-Dawley rat,oral,3 mg/kg,200
"ICR mouse, male",intravenous,1.0 mg/kg,4.8
male CD-1 mouse,intravenous,1 mg/kg,4.8
male CD-1 mouse,oral,3 mg/kg,40.2
"ICR mice, male",oral,3.0 mg/kg,40.2
"Sprague Dawley rat, male",intravenous,1.0 mg/kg,15

# Set 3 — effect on: enzyme activity; mode: inhibitor; tested at: 0.5 µM; baseline: control
# Structure (SMILES): COc1ccc2c(c[n+](C)c3c4cc5c(cc4ccc23)OCO5)c1OC
target,remaining activity
"BRSK2 (Homo sapiens, UniProt Q8IWQ3)",97%
"PRKCQ (Homo sapiens, UniProt Q04759)",99.9%
"FLT1 (Homo sapiens, UniProt P17948)",88.8%
"CSNK1E (Homo sapiens, UniProt P49674)",90.7%
"SRPK1 (Homo sapiens, UniProt Q96SB4)",95.3%
"SIK2 (Homo sapiens, UniProt Q9H0K1)",95.5%
"PIM1 (Homo sapiens, UniProt P11309)",97%
"MUSK (Homo sapiens, UniProt O15146)",98.2%
"EPHB3 (Homo sapiens, UniProt P54753)",95.4%
"MELK (Homo sapiens, UniProt Q14680)",89.6%
"MAP3K20 (Homo sapiens, UniProt Q9NYL2)",94.7%
"SGK2 (Homo sapiens, UniProt Q9HBY8)",99.1%
"EPHA2 (Homo sapiens, UniProt P29317)",97.3%

# Set 4 — cell line: HEK-293T/ACE2; tested at: 10 µM; time: 16 h; baseline: vehicle
SMILES,viability [%]
CC(NCCc1ccc(O)cc1)C(O)c1ccc(O)cc1 (stereo not shown),100
C#Cc1cccc(Nc2ncnc3cc(OCCOC)c(OCCOC)cc23)c1,98.2
c1ccc2[nH]c(-c3cscn3)nc2c1,98.7
CN(C)CCC(c1ccc(Cl)cc1)c1ccccn1 (stereo not shown),103
C[C@]12CC[C@H]3[C@@H](CCC4=CC(=O)CC[C@@]43C)[C@@H]1CC[C@@H]2O,98.6

# Mixed results
Structure (SMILES),target,effect on,tested at,quantity,result
O=C(NS(=O)(=O)c1ccc(NCC2CCOCC2)c([N+](=O)[O-])c1)c1ccc(N2CCN(Cc3ccc(C(F)(F)F)cc3-c3ccc(Cl)cc3)CC2)cc1Oc1cnc2[nH]ccc2c1,"Sodium-dependent noradrenaline transporter (SLC6A2, Homo sapiens, UniProt P23975)",ligand displacement,10 µM,inhibition,-21.9%

# For quick reference, copied from above (set 3):
target,remaining activity
"MAP3K20 (Homo sapiens, UniProt Q9NYL2)",94.7%
"EPHA2 (Homo sapiens, UniProt P29317)",97.3%
